Experimental data from different studies.
A part holds a random share of what one study measured. Substitutions count along the parent as printed.

Set 1
Target: Interferon regulatory factor 7, full length, phosphomimetic (IRF7, Homo sapiens, UniProt Q92985, residues 1-503, S101K/S471D/S472D/S475D/S476D/S477D/S483D/S484D/S487D)
UniProt Q92985, sequence (whole entry, unmodified, looked up): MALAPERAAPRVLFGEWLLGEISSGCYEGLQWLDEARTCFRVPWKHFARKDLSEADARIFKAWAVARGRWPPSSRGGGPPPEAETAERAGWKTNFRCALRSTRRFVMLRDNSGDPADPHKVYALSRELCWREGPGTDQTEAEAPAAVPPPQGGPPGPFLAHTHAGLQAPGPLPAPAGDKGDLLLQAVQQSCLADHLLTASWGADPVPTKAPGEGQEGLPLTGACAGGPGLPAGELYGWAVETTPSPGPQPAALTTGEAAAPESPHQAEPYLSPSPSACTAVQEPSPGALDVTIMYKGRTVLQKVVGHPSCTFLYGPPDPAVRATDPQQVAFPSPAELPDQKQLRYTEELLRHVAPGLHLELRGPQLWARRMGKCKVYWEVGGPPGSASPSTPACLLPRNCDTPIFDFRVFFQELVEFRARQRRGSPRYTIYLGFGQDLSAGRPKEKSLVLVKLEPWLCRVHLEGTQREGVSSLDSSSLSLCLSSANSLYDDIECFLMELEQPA
Method: protein-binding microarray
Molecule type: double-stranded DNA, one strand shown
Sample: in vitro
Concentration: 250 nM
Notes: 60-bp whole probe
Together with: salmon DNA 0.4 mg/ml
Baseline: random background probes
Reading: higher = stronger binding
All sequences stand within: GCCTAGCAC … GTCTTGATTCGCTTGACGCTGCTG
Sequence | log fluorescence [z-score]
GACGGTATGGGTCTCGGGACGTGCTAG | -0.578
TTAGGCCTCGGTTTCGGTTAGTGCTAG | 8.71
TGAGGTATCGGGTTTCGGTTAGTGCTA | 6.87
TTAAGACTGGGTCTCGGTTAGTGCTAG | 0.669
TCACTCCTCCAGGTTCTCACTGTGCTA | 0.488
GACTGTATCCTTTTCCTGACGTGCTAG | 0.795
TTAGGTTTCCTTCTTCTTTAGTGCTAG | 2.46
TTAGGTATCGGAATCGGTTAGTGCTAG | 2.64
GGGTTTTTTAGGCAGACAGCGTGCTAG | -0.016
TTAGGTATCGACTTTCGGTAAGTGCTA | 1.74
GACGGTTTCCTTCGCCTGACGTGCTAG | 0.824
TGCTTCCTCTTTCTCTGCTAGTGCTAG | 2.37
TCATCATTATTGTCTCCCACTGTGCTA | 0.312
TCATATTAAAATTTAATACTGTGCTAG | 0.645
GCAGGGCAGGCAGGCTGAGGGTGCTAG | -1.55
TTAGGTCTCGGTTTCGGTTTGTGCTAG | 13.2
CTAGGTTTCGACTTTCGGTTAGTGCTA | 11.2
TACGATTTCGGGACTGGAGACGTGCTA | 0.375
GACGATATCACTCTCGAGACGTGCTAG | 0.16
TTAGGACTGCTATTGCTTTAGTGCTAG | -0.137
GTAGGTATCCTTATCCTTTAGTGCTAG | -0.0779
TGAGGTTTTCTAATGTTTTTGTGCTAG | -0.00335
AGTTGTTTTAAATTCTAATTGTGCTAG | 0.382

Set 2
Target: CDC34 UBC core domain (UniProt P49427)
Method: yeast two-hybrid
Sample: yeast
Notes: mostly zero background
Baseline: not given
Reading: higher = stronger interaction
B1: RNF43 RING domain (UniProt Q68DV7); chain SGSSCSSAPVCAICLEEFSEGQELRVISCLHEFHRNCVDPWLHQHRTCPLCMFNITEGDSFS
B2: TRIM38 RING domain (UniProt O00635); chain STKKMMEEATCSICLSLMTNPVSINCGHSYCHLCITDFFKNPSQKQLRQETFCCPQCRAPFHMDSLRP
B3: TRIM3 RING domain (UniProt O75382); chain VQPMDKQFLVCSICLDRYQCPKVLPCLHTFCERCLQNYIPAQSLTLSCPVCRQTSILPEQGV
B4: RNF4 RING domain (UniProt P78317); chain TGLRPSGTVSCPICMDGYSEIVQNGRLIVSTECGHVFCSQCLRDSLKNANTCPTCRKKINHKRYHP
B5: RNF149 RING domain (UniProt Q8NC42); chain EKGIDVDAENCAVCIENFKVKDIIRILPCKHIFHRICIDPWLLDHRTCPMCKLDVIKALGYW
B6: RNF14 RING domain (UniProt Q9UBS8); chain IKCFNSKLFLCSICFCEKLGSECMYFLECRHVYCKACLKDYFEIQIRDGQVQCLNCPEPKCPSVATPGQVK
B7: ANKIB1 RING domain (UniProt Q9P2G1); chain LSPGDLDTSLCDICMCSISVFEDPVDMPCGHDFCRGCWESFLNLKIQEGEAHNIFCPAYDCFQLVPVDIIE
B8: RNF112 RING domain (UniProt Q9ULX5); chain QPMAPRELPTCSICLERLRDPISLDCGHDFCIRCFSTHRLPGCEPPCCPECRKICKQKRGLR
B9: TRIM35 RING domain (UniProt Q9UPQ4); chain PSRSFKEELLCAVCYDPFRDAVTLRCGHNFCRGCVSRCWEVQVSPTCPVCKDRASPADLRT
Target sequence (chain): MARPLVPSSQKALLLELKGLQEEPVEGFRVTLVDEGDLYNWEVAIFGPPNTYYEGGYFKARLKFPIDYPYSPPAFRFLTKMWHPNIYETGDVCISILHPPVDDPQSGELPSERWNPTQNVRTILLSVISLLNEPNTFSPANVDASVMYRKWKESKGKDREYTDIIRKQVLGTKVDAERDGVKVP
Sequence | lacZ reporter activity
B1 (RNF43 RING domain) | 0
B2 (TRIM38 RING domain) | 0
ISNDSETLEECMVCSDMKRDTLFGPCGHIATCSLCSPRVKKCLICKEQVQSRTKIE (MIB1 RING domain (UniProt Q86YT6)) | 0
B3 (TRIM3 RING domain) | 0
B4 (RNF4 RING domain) | 0
B5 (RNF149 RING domain) | 0
B6 (RNF14 RING domain) | 0
B7 (ANKIB1 RING domain) | 0
B8 (RNF112 RING domain) | 0
B9 (TRIM35 RING domain) | 0
KRQCSDVDDICSICQAEFQKPILLICQHIFCEECMTLWFNREKTCPLCRTVISDHINKW (RNFT1 RING domain (UniProt Q5M7Z0)) | 0

Set 3
Target: Sal-like protein 4, full length isoform B (SALL4, Homo sapiens, UniProt Q9UJQ4-2, residues 1-616)
Method: universal PBM
Molecule type: double-stranded DNA, one strand shown
Sample: in vitro
Concentration: not given
Notes: 8-mer, flanks averaged, mean of replicates
Reading: higher = stronger binding
Sequence | E-score
GCTTAGCC | -0.209
CCGAGCCC | -0.364
CGCATGGA | -0.219
CCCACCTA | 0.00208
CACTATGA | 0.141
CGCTGCGA | -0.168
CGCATGCG | -0.235
GCAGACCA | -0.252
GGTGATAC | -0.147
ACTCTGCA | -0.0832
CGACTTTA | 0.0599
AAGTGCCG | -0.143
AATGGCCC | -0.298
AACTGCTA | -0.0343
ACAAACTC | 0.0247
AAGTGTTC | 0.00928
TAGCGCCA | -0.152
AGGCCGGC | -0.213
ATCCTCTA | -0.00404
GCCACGCC | -0.232
CAAATGAC | 0.1
CGCGCACA | -0.195
AAAGAGTA | 0.187
AAGCACAT | 0.0774

Set 4
Target: ABI1, truncated, D143A, DHFR fusion (Arabidopsis thaliana)
Method: DHFR PCA, deep sequencing
Sample: yeast
Notes: methotrexate growth selection, single substitutions
Together with: (+)-ABA 17 µM
Baseline: wild-type fitted maximum
Reading: higher = stronger binding
Starting sequence: PYL1, truncated, DHFR fusion (Arabidopsis thaliana); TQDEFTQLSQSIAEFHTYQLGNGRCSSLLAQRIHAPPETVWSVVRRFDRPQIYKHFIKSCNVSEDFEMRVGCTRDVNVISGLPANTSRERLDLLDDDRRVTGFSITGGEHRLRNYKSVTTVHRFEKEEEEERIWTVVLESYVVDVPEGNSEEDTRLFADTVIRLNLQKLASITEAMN; partner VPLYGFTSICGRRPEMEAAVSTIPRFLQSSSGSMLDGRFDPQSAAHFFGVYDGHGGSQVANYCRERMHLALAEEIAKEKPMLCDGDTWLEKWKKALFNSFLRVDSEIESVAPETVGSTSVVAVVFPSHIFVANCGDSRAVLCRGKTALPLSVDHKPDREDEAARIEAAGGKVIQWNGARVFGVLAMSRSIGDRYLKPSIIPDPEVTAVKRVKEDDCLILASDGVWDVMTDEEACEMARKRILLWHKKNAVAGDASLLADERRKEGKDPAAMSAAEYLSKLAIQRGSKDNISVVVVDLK
Change | relative binding score
A84L | 7.51%
K126M | 91.1%
F56R | -5%
E127T | 88.9%
H110T | 33.7%
T120G | 5.03%
E4R | 60.3%
E152G | 70.5%
T119N | 10.5%
V136Q | 21.9%
L93F | 75.4%
Y18T | 60.6%
I33N | -14.5%
C25I | 72%

Set 5
Target: PABPC1L2, full length, GST fusion (mouse, UniProt A0ABA7IW68)
Method: RNAcompete
Molecule type: RNA
Sample: in vitro
Concentration: 20 nM
Notes: 7-mer, probes averaged, single round
Baseline: mean of 7-mers
Reading: higher = stronger binding
Target sequence (chain): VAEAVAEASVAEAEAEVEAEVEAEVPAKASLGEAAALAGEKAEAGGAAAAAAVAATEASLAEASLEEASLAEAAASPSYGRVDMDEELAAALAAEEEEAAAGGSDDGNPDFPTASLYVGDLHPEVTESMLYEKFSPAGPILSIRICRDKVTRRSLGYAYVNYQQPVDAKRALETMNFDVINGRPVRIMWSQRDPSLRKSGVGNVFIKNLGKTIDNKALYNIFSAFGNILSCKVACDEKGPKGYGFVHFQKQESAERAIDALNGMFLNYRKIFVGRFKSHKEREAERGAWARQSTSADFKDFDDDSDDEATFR
Sequence | 7-mer Z-score
AAAAGUU | 4.84
GCAGGAC | 0.287
UUUAAUA | -0.159
AUGUCCU | -0.182
UAGGUAC | -0.139
AUCUUGG | -0.122
GACUCGC | -0.403
AUUCGUG | -0.164
UGUGCGC | -0.103
GAGUGGG | 0.0696
GCGAAAU | 0.037
CAUUUAG | 0.378
CAGACAC | 0.111
GAUGAGC | -0.0301
UUGGUGA | -0.0391
UAGAUCU | -0.184
GUGGCCG | -0.0609
CUUACUU | -0.278
CAAUGAG | -0.0935

Set 6
Target: Histone acetyltransferase KAT6A, both winged helices, GST fusion (KAT6A, Homo sapiens, UniProt Q92794, residues 1-181)
Method: protein binding microarray
Molecule type: double-stranded DNA, one strand shown
Sample: in vitro
Concentration: not given
Notes: 8-mer, flanks averaged, mean of 2 arrays, mostly near background
Baseline: not given
Reading: higher = stronger binding
Target sequence (chain): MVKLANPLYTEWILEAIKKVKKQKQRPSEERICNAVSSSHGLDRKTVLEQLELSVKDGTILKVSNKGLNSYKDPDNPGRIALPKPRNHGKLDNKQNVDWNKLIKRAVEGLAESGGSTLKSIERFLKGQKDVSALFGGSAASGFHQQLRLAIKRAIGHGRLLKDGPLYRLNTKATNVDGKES
Sequence | E-score
ACCCAACT | -0.297
ACTAACAC | 0.0466
AGTACATG | -0.149
ACACGTAT | 0.0221
AGGGAAAT | -0.162
AGGAAGAG | -0.118
GCTAGGTA | -0.105
TATTCCAA | -0.0908
AACTCACC | -0.145
CAAGTTTA | -0.108
AGTTTCGC | 0.0883
GATGCCGA | 0.235
ACCTCTGC | -0.0722
CAAGGCCC | -0.043
GAGTTACC | -0.114
ACAGTCTC | -0.12
AGAGCTTA | -0.155
AATGGGAA | -0.308
CCTCTAGC | -0.127
ATACTATA | -0.0266
ATAAGACG | -0.0275
TCTATCAA | -0.188

Set 7
Target: CCNB1, cyclin fold, Cln2 fusion (human)
Method: yeast growth competition, sequencing
Sample: yeast
Notes: weak parent motif
Baseline: not given
Reading: higher = stronger binding
Starting sequence: DTL docking peptide (human); PSSMRKICTYFHR
Change | normalised enrichment score
R13A | 0.179
R5A | 0.17
M4A | 0.12
T9A | -0.0239
S3A | 0.267
Y10A | 0.128
